Experimental data from different studies.
Each numbered part is a random draw from the data of one study; scales do not carry over between parts. Positions count from the first letter of the parent shown.

Sample 1 — method: protein-binding microarray; molecule type: double-stranded DNA, one strand shown; sample: in vitro; tested at: 250 nM; setting: 60-bp whole probe; together with: salmon DNA 0.4 mg/ml; relative to: random background probes; reading: higher = stronger binding; constant ends, left off below: GCCTAGCAC … GTCTTGATTCGCTTGACGCTGCTG
Target: Interferon regulatory factor 7, full length, phosphomimetic (IRF7, Homo sapiens, UniProt Q92985, residues 1-503, S101K/S471D/S472D/S475D/S476D/S477D/S483D/S484D/S487D)
Sequence of UniProt Q92985 (whole entry, unmodified, looked up): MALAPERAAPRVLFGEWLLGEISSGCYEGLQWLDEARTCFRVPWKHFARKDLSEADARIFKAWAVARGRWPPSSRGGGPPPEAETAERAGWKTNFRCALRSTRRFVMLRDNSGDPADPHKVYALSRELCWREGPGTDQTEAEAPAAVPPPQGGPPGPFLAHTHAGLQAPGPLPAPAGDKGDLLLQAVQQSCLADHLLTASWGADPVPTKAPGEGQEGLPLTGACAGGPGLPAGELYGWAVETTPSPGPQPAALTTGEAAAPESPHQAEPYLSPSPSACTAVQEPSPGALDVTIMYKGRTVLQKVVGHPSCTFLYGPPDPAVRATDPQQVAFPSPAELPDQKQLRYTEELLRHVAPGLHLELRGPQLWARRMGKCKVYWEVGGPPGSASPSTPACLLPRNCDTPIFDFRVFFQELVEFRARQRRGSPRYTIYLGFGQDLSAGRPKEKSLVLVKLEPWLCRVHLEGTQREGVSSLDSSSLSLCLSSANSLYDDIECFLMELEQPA
Oligonucleotide | log fluorescence [z-score]
AAGCAAGGTGGAGAAGAGAAGTGCTAG | -1.07
GACGGTTTCCTAGTGCTGACGTGCTAG | 0.978
TTAGGACTCCTACTGCTTTAGTGCTAG | 0.0114
GGGTCTCTGGGTCGGGCAGGGTGCTAG | 0.265
TAGTTTTACTTTCTATGTCTGTGCTAG | 2.98
AGCCGTCTCCACCTGGGCAAGTGCTAG | -0.999
TCACATATACACATCTTACTGTGCTAG | 0.928
GACGGTATCGGGTTTCGGCACGTGCTA | 1.8
GACGATCTCAGTTTTGAGACGTGCTAG | 0.281
TTGGGTATCGGACTGGGTTAGTGCTAG | -0.0256
GACGGTTTTGACTATCGGGACGTGCTA | 0.19
GACGGTTTGCTTTTCCTGACGTGCTAG | 0.622
GACGATTCCAGTATCGAGACGTGCTAG | 0.441
GTGCCTTTATATACCTGAATGTGCTAG | 0.975

Sample 2 — method: universal PBM; molecule type: double-stranded DNA, one strand shown; sample: in vitro; tested at: 600 nM; reading: higher = stronger binding
Target: Sal-like protein 4, full length isoform A (SALL4, Homo sapiens, UniProt Q9UJQ4, residues 1-1053)
Sequence of UniProt Q9UJQ4 (whole entry, looked up): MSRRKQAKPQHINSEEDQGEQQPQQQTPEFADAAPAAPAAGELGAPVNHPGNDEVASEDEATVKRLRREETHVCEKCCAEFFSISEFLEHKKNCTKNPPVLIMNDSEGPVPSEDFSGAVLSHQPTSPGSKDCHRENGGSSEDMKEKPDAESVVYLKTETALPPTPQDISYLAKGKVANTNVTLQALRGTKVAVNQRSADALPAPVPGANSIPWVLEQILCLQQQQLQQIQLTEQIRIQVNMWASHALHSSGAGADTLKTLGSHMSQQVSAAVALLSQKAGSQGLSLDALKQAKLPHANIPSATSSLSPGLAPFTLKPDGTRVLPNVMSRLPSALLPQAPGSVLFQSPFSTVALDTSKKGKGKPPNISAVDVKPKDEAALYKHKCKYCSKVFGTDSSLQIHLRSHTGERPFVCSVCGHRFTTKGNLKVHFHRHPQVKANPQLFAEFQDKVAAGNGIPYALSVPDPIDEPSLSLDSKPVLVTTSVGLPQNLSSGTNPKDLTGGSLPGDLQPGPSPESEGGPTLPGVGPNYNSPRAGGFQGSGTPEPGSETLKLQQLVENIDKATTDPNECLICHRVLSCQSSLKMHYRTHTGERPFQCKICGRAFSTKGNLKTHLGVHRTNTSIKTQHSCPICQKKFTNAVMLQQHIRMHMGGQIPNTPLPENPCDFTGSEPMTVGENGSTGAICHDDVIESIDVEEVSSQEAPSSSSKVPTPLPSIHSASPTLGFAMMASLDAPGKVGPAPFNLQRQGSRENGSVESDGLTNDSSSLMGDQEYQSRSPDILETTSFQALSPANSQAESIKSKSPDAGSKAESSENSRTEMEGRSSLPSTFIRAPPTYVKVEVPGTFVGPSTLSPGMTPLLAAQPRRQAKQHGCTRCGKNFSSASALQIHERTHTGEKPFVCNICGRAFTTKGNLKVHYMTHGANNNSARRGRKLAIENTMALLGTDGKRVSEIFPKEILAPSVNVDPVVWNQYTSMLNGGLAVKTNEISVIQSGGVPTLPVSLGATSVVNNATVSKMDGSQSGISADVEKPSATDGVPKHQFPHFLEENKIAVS
Setting: 8-mer, flanks averaged, mean of replicates
Oligonucleotide | E-score
GGACCGAA | 0.0298
CAGAAGAC | -0.0413
AGTGAGGC | -0.279
GCGAAAGC | -0.143
ACTAACGG | -0.0657
AATGCGAG | 0.101
GGTAGTCA | -0.204
GTTGTACA | 0.193
AATGTTCG | 0.09
AAGAGTGG | -0.174
GCTCACCA | -0.214
GCTTCCAA | -0.0128

Sample 3 — target: CCND2, cyclin fold, Cln2 fusion (human); method: yeast growth competition, sequencing; sample: yeast; setting: weak parent motif; relative to: not given; reading: higher = stronger binding
Parent: GMNC docking peptide (human); KNAKRNLSSEFAN
Variant | normalised enrichment score
A3E | 0.0881
S8A | -0.0312
L7C | -0.204
A12W | 0.181
A12I | 0.324
A12K | 0.162
N6E | 0.493
N2R | 0.815
F11K | -0.332
R5Q | 0.132
A3M | 0.524
R5F | 0.0309
K4W | -0.0823
S9R | 0.526
L7Q | -0.0117

Sample 4 — method: RNA Bind-n-Seq; molecule type: RNA; sample: in vitro; tested at: 365 nM; relative to: no-protein control; reading: higher = stronger binding
Target: RNA binding protein fox-1 homolog 2, RRM domain, GST-SBP tag (RBFOX2, Homo sapiens, UniProt O43251-10, residues 100-194)
Setting: natural RNA segment, single round, ends assumed
Constant ends, left off below: GGGAGUUCUACAGUCCGACGAUC … UGGAAUUCUCGGGUGCCAA
Residues (chain): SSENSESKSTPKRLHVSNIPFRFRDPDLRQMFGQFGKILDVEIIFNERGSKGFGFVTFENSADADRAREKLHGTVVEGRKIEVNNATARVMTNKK
Oligonucleotide | RBNS enrichment (R)
GAUGUGCCCUGUUGCCCCCCACCCCAUCCCGCACAGAACCAUCCCUGCAUUCCACAGGGGACUCGGGCAAGGGUGCCGAAGAUAGACAAGAGGCACACAGAGACAGACCA | 0.43
GGCUAGAAGCAGCCAGGCCAUGGAAACAAGUUGAAUACAGCGAUUGGUAGGCCUCAUGUCAGAAUCAGGACCCUGCACUUCAGGACCCUUGCUUCUGCCCACCAAUCAGA | 0.337
UGUCUACUCCUUAAUUGUCACAUUAGAAUUUGGUCGGCCAUUGUUUUGGUUAUGUUGCUGAUGUAAAUUUGUGUAAAUGGUUUCUACCCUGGAGAGUGUGUGUACCGUGU | 8.77
GAGCCAUACCGACCAUCGUCCAGCCCUCCUACGCAGAUGCUGUCACUGGCAGAGCACAGCCCACGGGGAUCACAGCGUUUCAGGAACGUUGCCACACCAAUCAGAGAGCC | 0.343
AAAGCUGAGACAUUGUCCCCAACUCUUCUUGAUGUAUUUAUUAAUUUAGAGUUUUACCAGCUAUUUAUUGAGUACCCUGUAUAUAGUAGAUCAGUGAGGAGGUGAAUGUA | 0.797
GACUUUCCAAAGAACCCUUAAGUUUCCAUUUCCCAGUGGCAAUAACUGUGACCUGAUCCCUACCCCACAUGCUGUCUCCUUUUCUUUGGGAGUUAGCAACAUUUGAGGAU | 0.385

Sample 5 — method: RNA Bind-n-Seq; molecule type: RNA; sample: in vitro; tested at: 200 nM; setting: whole 134-nt RNA, ends assumed; together with: 150 mM KCl; relative to: input library; reading: higher = stronger binding
Target: Fragile X messenger ribonucleoprotein 1, C-terminal low-complexity region (Fmr1, Mus musculus, UniProt P35922)
Constant ends, left off below: GGGAGUUCUACAGUCCGACGAUC … UGGAAUUCUCGGGUGUCAAGG
Oligonucleotide | log2 enrichment
CCUGUGCUACACAUCGUAUGUACCGAAUCGGGGUGGGGAAAAAAAGGGGUUUUUUUGGGGAAAGUAUUAUGUUACGCCGUUCGGAUCUGC | 0.363
CUCAAGUCCUGUGCUACACAUCGUAUGUACCGAAUCGGUGGAGGUUUUUUUGGAAAGUAUUAUGUUACGCCGUUCGGAUCUGCACUUCCA | -0.226
AAGUCCUGUGCUACACAUCGUAUGUACCGAAUCGGGAAAGGGUGGGAAAAAAAGGGAAAGUAUUAUGUUACGCCGUUCGGAUCUGCACUU | 0.35
UGGGAGGUGGAUUCUGUUUAUUUUUUUAGCUCAUUUCCAGGGGUGGGAAUUUUUUUUUAAUAUGUGUCAUGAAUAAAGUUGUUUUUGAAA | 0.115
CAAGUCCUGUGCUACACAUCGUAUGUACCGAAUCGGGAAAGGGAAAGGGAAAGGGAAAGUAUUAUGUUACGCCGUUCGGAUCUGCACUUC | 0.441
AAAUGGUAGUGUGCGGAGUUUUUUUUUCUUCCUUCUUUUAAAAAUGGUUGUUUAAGACUUUAACAAUGGGAACCCCUUGUGAGCAUGCUC | -1.1
CACAGACAACACGCACCCACACAGACACAGAGGGAAGGGGUUGGGAUGGGGCCAGGGUGCACAGCAGGGCGGGGUAGGACCCCAGCCCCU | 1.23
CUCAAGUCCUGUGCUACACAUCGUAUGUACCGAAUCGGAAAGGAGGUUUUUGGAAAGUAUUAUGUUACGCCGUUCGGAUCUGCACUUCCA | -0.231
CAGAACGAUCGAUACAGAAACCACGCUGCCGCCACCACACCAUCACCAUCGACAGAACAGUCCUUAAUCCAGAAACCUGAAAUGAAGGAA | 0.596

Sample 6 — method: RNA Bind-n-Seq; molecule type: RNA; sample: in vitro; tested at: not given; relative to: input RNA pool; reading: higher = stronger binding
Target: RING finger protein unkempt homolog, zinc fingers 1-6, GST-SBP tag (UNK, Homo sapiens, UniProt Q9C0B0, residues 30-357)
Sequence of UniProt Q9C0B0 (30-357, looked up): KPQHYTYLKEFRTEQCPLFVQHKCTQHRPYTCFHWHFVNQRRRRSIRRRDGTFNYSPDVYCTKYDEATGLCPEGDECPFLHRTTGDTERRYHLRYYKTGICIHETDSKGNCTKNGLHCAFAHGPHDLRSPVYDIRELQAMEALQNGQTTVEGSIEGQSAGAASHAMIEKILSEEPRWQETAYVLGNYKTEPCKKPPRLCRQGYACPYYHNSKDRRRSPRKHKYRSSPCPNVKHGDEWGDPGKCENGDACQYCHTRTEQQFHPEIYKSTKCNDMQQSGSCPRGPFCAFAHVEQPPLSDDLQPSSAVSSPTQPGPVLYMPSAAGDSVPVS
Setting: RNA with constant flanks, human and mouse sites, ends assumed
Constant ends, left off below: GGGAGUUCUACAGUCCGACGAUC … CAACAGAGGAUUGAGCAUCA
Oligonucleotide | bound/input enrichment [ratio]
GCAGCUGGGCAUUGCAGAGGACCUCAAGGACCGGGCAGCAGAGGGCCGUGCAUCCUCCAAUUUGGGGAUAAUCCACCAGAUGAAAGGCGAUUAUGACACAGCCCUGAAGCUCCACAAGAC | 0.101
GGAGGUGAAGAAGGCCCUGGAACUACAGAUGGAGAAUCACCGUGAGGCCCAUCACCGGCAGCUGGCCCGCCUCCGGGAUGAGAUUAAUGAGAAACAGAAAACCAUUGAUGAGCUGAAAGA | 0.171
AAGCGCAAGAAGAAUGACAUUUAUGGAGAAGACUAACAGCAGUACAUAUUAUGUAAUAAUUAGGACAAACUUAAAAUUUGGCAAAUAAUGUAUAUUGUAUGAAAUCAAUACUGUAAGCCC | 0.641
UGGACUGAUCUCUUUGACAAUAAGGUUUUGACAUUUGCAUAUAAACAUGCAUUAGUAAAUAAAAUGUAUGGGAGAGGCCUUAAAUUUGCAACUAAACUUGUGGAAGAAAAACCAACAAAA | 0.242
GUGUGUGUGUGUGUGUGUGUGUGUGUGUGUGUGUGUGUAAGGGAGUACUUUAACCUUGCCAGUUUGUUCCCUCUUUUAUUUUACUGUUUUCUUUUUAGAAACCCACUGUUAAAAUUUAAA | 4.19
AUUUGCUGUCUUUAGAGGCCACGGCUUCAUUUCUAUGCGUAAAAAGCUCAUUUAGCAAUGUAGUUAUUUCAGUAUUUAUUUCUAUUAUGGAAUCCCUGGGGUUCGGAAUGUAACUUUGUA | 3.37
CUCUCCAGUUCCAAGGACUCGUAUACAGCUCCCAUUUAUAAUUUUGCCCUUAUUUUUAAGUUAGGAAAUAAUGAUUAACUUAUGAAUAAAUAGUAUGGGGCAAGAGUGGGAUUUCUUCCG | 0.277
AGUUCCAGCGACAGCGACUCAUCUUGUGGCUGGACUGUCAUCAAUCAUGAGGGUUCUGAUAUAGAGAUCGUGAAUUCUGCCACAGCCAGUGACAACUGUGGACUGACUCUAGAAUGUUCC | 0.142
